Published values pooled from the literature.
Protocols differ between the studies behind these lines. ± gives the spread as reported.
OPRK1: Kappa-type opioid receptor (OPRK1, Homo sapiens, UniProt P41145)

Amino acid sequences for entries named in this document (tags omitted). Residues count along the entry.
UniProt P41145, whole entry: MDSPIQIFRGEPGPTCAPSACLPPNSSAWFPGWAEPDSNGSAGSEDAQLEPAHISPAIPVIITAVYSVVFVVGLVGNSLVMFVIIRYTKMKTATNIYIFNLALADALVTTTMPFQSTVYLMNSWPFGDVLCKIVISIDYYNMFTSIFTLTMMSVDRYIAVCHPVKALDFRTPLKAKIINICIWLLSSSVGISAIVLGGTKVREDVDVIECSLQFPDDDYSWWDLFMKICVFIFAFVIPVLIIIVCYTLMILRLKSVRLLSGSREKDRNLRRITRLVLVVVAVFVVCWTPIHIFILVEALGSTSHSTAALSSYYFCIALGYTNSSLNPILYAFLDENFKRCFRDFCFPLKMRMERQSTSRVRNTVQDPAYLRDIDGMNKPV
UniProt A0A286XTF2, 1-366: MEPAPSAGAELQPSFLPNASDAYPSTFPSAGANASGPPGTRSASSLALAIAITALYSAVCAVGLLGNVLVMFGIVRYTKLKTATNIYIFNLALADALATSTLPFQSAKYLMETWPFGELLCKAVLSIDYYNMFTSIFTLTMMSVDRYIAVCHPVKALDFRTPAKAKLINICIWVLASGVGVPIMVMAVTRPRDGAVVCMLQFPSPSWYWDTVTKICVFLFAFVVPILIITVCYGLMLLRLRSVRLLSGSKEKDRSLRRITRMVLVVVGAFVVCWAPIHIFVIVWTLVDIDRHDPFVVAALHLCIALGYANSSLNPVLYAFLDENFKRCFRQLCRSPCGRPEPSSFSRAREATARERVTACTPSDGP
UniProt P33535, whole entry: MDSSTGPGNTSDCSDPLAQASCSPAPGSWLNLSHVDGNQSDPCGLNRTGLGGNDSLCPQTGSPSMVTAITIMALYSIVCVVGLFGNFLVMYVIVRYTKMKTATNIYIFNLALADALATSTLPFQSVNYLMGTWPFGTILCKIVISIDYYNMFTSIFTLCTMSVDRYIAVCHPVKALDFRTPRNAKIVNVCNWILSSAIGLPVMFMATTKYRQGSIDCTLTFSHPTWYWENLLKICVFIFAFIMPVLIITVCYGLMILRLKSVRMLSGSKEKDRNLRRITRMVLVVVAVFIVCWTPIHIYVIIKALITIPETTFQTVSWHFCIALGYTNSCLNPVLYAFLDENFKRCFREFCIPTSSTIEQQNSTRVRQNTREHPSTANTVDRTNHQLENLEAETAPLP
UniProt P41146, whole entry: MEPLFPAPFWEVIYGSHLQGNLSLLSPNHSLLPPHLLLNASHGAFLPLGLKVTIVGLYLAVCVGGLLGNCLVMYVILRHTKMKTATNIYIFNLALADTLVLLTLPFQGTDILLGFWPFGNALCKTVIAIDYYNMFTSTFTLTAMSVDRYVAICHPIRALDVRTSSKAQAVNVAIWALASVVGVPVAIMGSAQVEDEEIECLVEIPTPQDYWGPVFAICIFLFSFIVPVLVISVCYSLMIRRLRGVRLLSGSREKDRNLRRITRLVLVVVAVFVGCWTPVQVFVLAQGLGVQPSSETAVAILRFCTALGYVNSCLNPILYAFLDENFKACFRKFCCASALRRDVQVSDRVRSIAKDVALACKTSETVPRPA
UniProt P41143, whole entry: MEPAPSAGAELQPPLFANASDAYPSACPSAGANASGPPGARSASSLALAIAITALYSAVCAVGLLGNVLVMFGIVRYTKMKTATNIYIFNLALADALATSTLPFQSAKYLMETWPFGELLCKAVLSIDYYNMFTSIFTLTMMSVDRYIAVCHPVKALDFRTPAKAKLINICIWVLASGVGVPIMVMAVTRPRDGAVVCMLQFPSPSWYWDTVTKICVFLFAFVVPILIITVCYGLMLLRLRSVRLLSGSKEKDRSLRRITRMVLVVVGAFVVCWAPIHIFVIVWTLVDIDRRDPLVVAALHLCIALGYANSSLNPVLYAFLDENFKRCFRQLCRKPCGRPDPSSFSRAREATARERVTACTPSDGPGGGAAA
UniProt P21462, whole entry R190W: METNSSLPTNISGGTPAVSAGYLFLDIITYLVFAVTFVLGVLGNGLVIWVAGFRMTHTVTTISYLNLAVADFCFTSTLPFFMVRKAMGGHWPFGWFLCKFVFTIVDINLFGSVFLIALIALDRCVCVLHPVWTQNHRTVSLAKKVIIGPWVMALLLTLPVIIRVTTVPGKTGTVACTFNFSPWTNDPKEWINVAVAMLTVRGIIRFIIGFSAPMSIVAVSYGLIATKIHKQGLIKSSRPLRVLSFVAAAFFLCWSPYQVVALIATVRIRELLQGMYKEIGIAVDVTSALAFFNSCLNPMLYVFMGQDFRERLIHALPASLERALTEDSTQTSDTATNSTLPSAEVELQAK

Compound	target	assay	system	setting	Ki
CO[C@]12C=C[C@@]3(C[C@@H]1[C@@H](O)c1ccccc1)[C@H]1Cc4ccc(O)c5c4[C@@]3(CCN1CC1CC1)[C@H]2O5	G_PROTEIN_RECEP_F1_2 domain-containing protein (Cavia porcellus, UniProt A0A286XTF2)	binding, radioligand displacement	guinea pig brain membranes	together with: [3H]DPDPE	0.4 nM
O=CN1CC[C@]23c4c5ccc(O)c4O[C@H]2[C@@H](O)C=C[C@H]3[C@H]1C5	Oprm1 (Rattus norvegicus, UniProt P33535)		rat brain membranes	together with: [3H]DAMGO	420 ± 30 nM
CCC1C(=O)N(C2CCN([C@H]3CC[C@@H]4CCCc5cccc3c54)CC2)c2ccccc21 (relative stereo)	Nociceptin receptor (OPRL1, Homo sapiens, UniProt P41146)	radioligand displacement		together with: [3H]N/OFQ	3.16 nM
COc1cc(NC2(CNC(=O)CNC(=N)N)CCN(Cc3ccccc3)CC2)cc(OC)c1	OPRK1	binding	HEK293 membranes	together with: [3H]U-69,593	4250 ± 580 nM
CO[C@]12CC[C@@]3(C[C@@H]1[C@](C)(O)c1cccs1)[C@H]1Cc4ccc(O)c5c4[C@@]3(CCN1CC1CC1)[C@H]2O5	OPRK1	binding, radioligand displacement	CHO	together with: [3H]diprenorphine	2.8 ± 0.78 nM
CCC1C(=O)N(C2CCN(CCCCc3ccc(-c4ccccc4)cc3)CC2)c2ccccc21 (stereo not shown)	OPRK1	radioligand displacement		together with: tritiated U-69593	> 10000 nM
N=C(N)NCCC[C@H](N)C(=O)NCC1(Nc2ccccc2)CCN(Cc2ccccc2)CC1	OPRD1 (Homo sapiens, UniProt P41143)	binding		together with: [3H]DPDPE	> 5000 nM
CC[C@H](C)[C@H](N)C(=O)N[C@@H](CC(=O)O)C(=O)N[C@@H](CCCNC(=N)N)C(=O)N[C@@H](CC(C)C)C(=O)N[C@@H](CC(N)=O)C(=O)N[C@@H](CCC(=O)O)C(=O)N[C@H](C(=O)N[C@@H](C)C(=O)N[C@@H](CCCCN)C(=O)N[C@@H](CC(N)=O)C(=O)N[C@@H](CC(C)C)C(=O)N[C@@H](CC(N)=O)C(=O)N[C@@H](CCC(=O)O)C(=O)N[C@@H](CO)C(=O)N[C@@H](CC(C)C)C(=O)N[C@H](C(=O)N[C@@H](CC(=O)O)C(=O)N[C@@H](CC(C)C)C(=O)N[C@@H](CCC(N)=O)C(=O)N[C@@H](CCC(=O)O)C(=O)N[C@@H](CC(C)C)C(=O)NCC(=O)N[C@@H](CCCCN)C(=O)N[C@@H](Cc1ccc(O)cc1)C(=O)N[C@@H](CCC(=O)O)C(=O)N[C@@H](CCC(N)=O)C(=O)N[C@@H](Cc1ccc(O)cc1)C(=O)N[C@H](C(=O)N[C@@H](CCCCN)C(=O)N[C@@H](Cc1c[nH]c2ccccc12)C(=O)N1CCC[C@H]1C(=O)N[C@@H](Cc1c[nH]c2ccccc12)C(=O)N[C@@H](Cc1ccc(O)cc1)C(=O)N[C@H](C(=O)N[C@@H](Cc1c[nH]c2ccccc12)C(=O)N[C@@H](CC(C)C)C(=O)O)C(C)C)[C@@H](C)CC)[C@@H](C)CC)C(C)C	FPR1 (Homo sapiens, UniProt P21462, R190W)	binding, competition binding		4 °C, together with: formyl-Nle-Leu-Phe-Nle-Tyr-Lys-FITC 0.3 nM	770 ± 25 nM
CCC1C(=O)N(C2CCN(C3CCCc4ccccc43)CC2)c2ccccc21 (stereo not shown)	OPRK1	radioligand displacement		together with: tritiated U-69593	56.3 ± 10.2 nM
N=C(N)NCCNC(=O)C1(Nc2ccccc2)CCN(Cc2ccccc2)CC1	OPRK1	binding	HEK293 membranes	together with: [3H]U-69,593	1470 ± 190 nM

Excerpt of the above:
Compound	target	assay	system	setting	Ki
CO[C@]12C=C[C@@]3(C[C@@H]1[C@@H](O)c1ccccc1)[C@H]1Cc4ccc(O)c5c4[C@@]3(CCN1CC1CC1)[C@H]2O5	G_PROTEIN_RECEP_F1_2 domain-containing protein (Cavia porcellus, UniProt A0A286XTF2)	binding, radioligand displacement	guinea pig brain membranes	together with: [3H]DPDPE	0.4 nM
